Experimental data collected from several papers.
Protocols differ between the studies behind these lines. ± gives the spread as reported. In brackets after ≈: the same amount, converted by molar mass.

Substance | tested on | assay | system | setting | scale | quantity | value
AEOL 10150 | – | multiplex immunoassay | rat, status epilepticus, piriform cortex | sc, 7 mg/kg every 4 h, 24 h, from 5 min post-SE | – | IL-6 increase | decreased
CSCC[C@@H]1NC(=O)[C@H](CC(C)C)NC(=O)[C@H](CCCNC(=N)N)NC(=O)[C@H](CO)NC(=O)[C@@H]2CSSC[C@@H]3NC(=O)[C@H](CO)NC(=O)CNC(=O)[C@H]([C@@H](C)O)NC(=O)[C@H](CSSC[C@H](N)C(=O)N[C@@H](CCCCN)C(=O)NCC(=O)N[C@@H](CCCCN)C(=O)NCC(=O)N[C@@H](C)C(=O)N[C@@H](CCCCN)C(=O)N2)NC(=O)[C@H](CSSC[C@@H](C(N)=O)NC(=O)[C@H](CCCCN)NC(=O)CNC(=O)[C@H](CO)NC(=O)[C@H](CCCNC(=N)N)NC3=O)NC(=O)[C@H](CC(=O)O)NC(=O)[C@H](Cc2ccc(O)cc2)NC1=O | Candida kefyr | – | – | – | – | MIC | 28.8 µM (≈ 76 µg/mL)
NC12CC3CC(CC(C3)C1)C2 | Influenza A virus | viral replication, plaque size reduction | MDCK, A/Swine/Indiana/24-0218/2010 (H1N2) | – | – | EC50 | > 100000 nM
Nc1ncnc2c1ncn2[C@@H]1O[C@H](COP(=O)(O)OP(=O)(O)OP(=O)(O)O)[C@@H](O)[C@H]1O | nicotinamide mononucleotide adenylyltransferase R133A, His-tagged | substrate | – | – | baseline: R133A over wild type | K0.5 increase | 4 fold
pinnatoxin A | nicotinic acetylcholine receptor (Torpedo marmorata) | binding | – | Pecten maximus extract 25 mg/mL, together with: biotin-α-bungarotoxin | – | IC50 | 78.3 ± 15.3 nM
C[C@H](NP(=O)(Nc1ccn([C@H]2CS[C@@H](CO)O2)c(=O)n1)N[C@@H](C)C(=O)OCc1ccccc1)C(=O)OCc1ccccc1 | CEM/TK− | cell proliferation | – | 72 h | – | IC50 | 139000 ± 67000 nM
O=C([O-])c1ccc[n+]([C@@H]2O[C@H](COP(=O)(O)O)[C@@H](O)[C@H]2O)c1 | nicotinamide mononucleotide adenylyltransferase R133A, His-tagged | substrate | – | – | baseline: R133A over wild type | kcat decrease | 30 fold
CN1CC[C@]23c4c5ccc(O)c4O[C@H]2[C@@H](O)C=C[C@H]3[C@H]1C5 | – | locomotor activity | C57BL/6J male mice | subcutaneous | – | ED50 | 3.3 mg/kg
20-methyl spirolide G | nicotinic acetylcholine receptor (Torpedo marmorata) | binding | – | methanol standard, together with: biotin-α-bungarotoxin 80 nM | – | IC50 | 25.6 ± 10.8 nM
C#CC(=O)Nc1ccc([As]2SCCS2)cc1 | DLD-1 | cell viability, MTS | – | – | – | IC50 | 1410 ± 590 nM
Pillar[6]MaxQ | – | host-guest binding, isothermal titration calorimetry | PBS | together with: fentanyl | – | Kd | 78 nM
gymnodimine A | nicotinic acetylcholine receptor (Torpedo marmorata) | binding | – | together with: biotin-α-bungarotoxin | – | Hill slope | 0.82 ± 0.09
Cc1cc(/C=C/C#N)cc(C)c1Oc1nc(NC2CCN(Cc3ccc(P(C)(C)=O)cc3)CC2)nc2ccsc12 | HIV-1 | – | MT-4, K103N | – | baseline: doravirine EC50 over cpd EC50 | EC50 fold change | ~10.9 fold
13,19-didesmethyl spirolide C | nicotinic acetylcholine receptor (Torpedo marmorata) | binding | – | together with: biotin-α-bungarotoxin 80 nM | – | Ki | 0.8 ± 1.22 nM
C[C@H](NP(=O)(Nc1ccn([C@H]2CS[C@@H](COP(=O)(N[C@@H](C)C(=O)OCc3ccccc3)N[C@@H](C)C(=O)OCc3ccccc3)O2)c(=O)n1)N[C@@H](C)C(=O)OCc1ccccc1)C(=O)OCc1ccccc1 | Caco-2 | cell proliferation | – | 3 d | – | IC50 | > 250000 nM
13-desmethyl spirolide C | nicotinic acetylcholine receptor (Torpedo marmorata) | binding | – | together with: biotin-α-bungarotoxin 80 nM | – | Ki | 1.77 ± 1.14 nM
Nc1ccc([As]2SCCS2)cc1 | NCM460 | cell viability, MTS | – | – | – | IC50 | 11100 ± 820 nM
pinnatoxin G | nicotinic acetylcholine receptor (Torpedo marmorata) | binding | – | together with: biotin-α-bungarotoxin 80 nM | – | Ki | 5.2 ± 1.33 nM
COc1cccc(C(=O)N2CCN(C(=O)COc3cccc(C)c3)CC2)c1OC | PC-3 | qPCR, item: INK4A/ARF | – | 500 µM, 12 h | baseline: DMSO | mRNA level increase | ~60%

A few entries again:
Substance | tested on | assay | system | setting | scale | quantity | value
C[C@H](NP(=O)(Nc1ccn([C@H]2CS[C@@H](CO)O2)c(=O)n1)N[C@@H](C)C(=O)OCc1ccccc1)C(=O)OCc1ccccc1 | CEM/TK− | cell proliferation | – | 72 h | – | IC50 | 139000 ± 67000 nM
20-methyl spirolide G | nicotinic acetylcholine receptor (Torpedo marmorata) | binding | – | methanol standard, together with: biotin-α-bungarotoxin 80 nM | – | IC50 | 25.6 ± 10.8 nM
